Assay results of several laboratories.
UniProt Q9UQ88, sequence (whole entry, looked up): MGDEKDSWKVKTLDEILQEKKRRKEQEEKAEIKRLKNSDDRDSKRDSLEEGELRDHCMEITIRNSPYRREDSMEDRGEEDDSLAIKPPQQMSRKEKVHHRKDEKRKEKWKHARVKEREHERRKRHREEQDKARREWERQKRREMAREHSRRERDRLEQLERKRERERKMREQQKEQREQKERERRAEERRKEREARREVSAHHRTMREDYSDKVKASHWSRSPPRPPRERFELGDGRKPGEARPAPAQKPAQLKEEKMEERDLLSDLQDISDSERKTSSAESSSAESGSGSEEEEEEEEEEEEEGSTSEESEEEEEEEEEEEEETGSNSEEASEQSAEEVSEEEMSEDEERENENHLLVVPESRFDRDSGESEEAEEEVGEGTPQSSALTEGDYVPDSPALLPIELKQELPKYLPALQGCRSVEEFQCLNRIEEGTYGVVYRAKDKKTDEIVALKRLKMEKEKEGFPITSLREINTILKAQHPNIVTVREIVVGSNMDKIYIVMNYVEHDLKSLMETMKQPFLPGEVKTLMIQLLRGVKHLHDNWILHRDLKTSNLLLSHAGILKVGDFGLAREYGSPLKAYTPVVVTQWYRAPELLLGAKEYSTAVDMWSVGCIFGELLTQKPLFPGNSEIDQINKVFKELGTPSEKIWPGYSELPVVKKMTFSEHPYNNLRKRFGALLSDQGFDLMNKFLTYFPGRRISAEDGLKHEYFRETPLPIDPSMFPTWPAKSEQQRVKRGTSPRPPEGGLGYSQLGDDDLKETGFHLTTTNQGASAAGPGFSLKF
UniProt Q86UE8, sequence (whole entry, looked up): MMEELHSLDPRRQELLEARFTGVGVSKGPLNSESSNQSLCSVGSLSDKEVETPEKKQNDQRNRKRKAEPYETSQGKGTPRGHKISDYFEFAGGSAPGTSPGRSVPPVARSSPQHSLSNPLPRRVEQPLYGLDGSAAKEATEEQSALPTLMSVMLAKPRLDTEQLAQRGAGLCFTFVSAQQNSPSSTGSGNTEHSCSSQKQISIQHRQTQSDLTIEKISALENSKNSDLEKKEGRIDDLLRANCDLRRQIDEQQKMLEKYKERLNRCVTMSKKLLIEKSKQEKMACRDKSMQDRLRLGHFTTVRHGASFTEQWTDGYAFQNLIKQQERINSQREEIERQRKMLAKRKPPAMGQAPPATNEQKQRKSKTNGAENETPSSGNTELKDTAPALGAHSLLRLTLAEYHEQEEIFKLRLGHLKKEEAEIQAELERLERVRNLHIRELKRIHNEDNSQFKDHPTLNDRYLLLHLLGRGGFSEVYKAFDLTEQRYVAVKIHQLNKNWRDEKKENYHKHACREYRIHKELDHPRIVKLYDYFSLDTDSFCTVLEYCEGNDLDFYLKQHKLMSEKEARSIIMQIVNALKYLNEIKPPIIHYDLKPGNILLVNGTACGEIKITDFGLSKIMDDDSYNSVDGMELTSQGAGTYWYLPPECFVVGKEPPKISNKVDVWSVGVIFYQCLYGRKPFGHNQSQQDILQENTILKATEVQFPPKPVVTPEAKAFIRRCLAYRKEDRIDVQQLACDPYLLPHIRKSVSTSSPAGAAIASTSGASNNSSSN
UniProt Q86TI2, sequence (whole entry, looked up): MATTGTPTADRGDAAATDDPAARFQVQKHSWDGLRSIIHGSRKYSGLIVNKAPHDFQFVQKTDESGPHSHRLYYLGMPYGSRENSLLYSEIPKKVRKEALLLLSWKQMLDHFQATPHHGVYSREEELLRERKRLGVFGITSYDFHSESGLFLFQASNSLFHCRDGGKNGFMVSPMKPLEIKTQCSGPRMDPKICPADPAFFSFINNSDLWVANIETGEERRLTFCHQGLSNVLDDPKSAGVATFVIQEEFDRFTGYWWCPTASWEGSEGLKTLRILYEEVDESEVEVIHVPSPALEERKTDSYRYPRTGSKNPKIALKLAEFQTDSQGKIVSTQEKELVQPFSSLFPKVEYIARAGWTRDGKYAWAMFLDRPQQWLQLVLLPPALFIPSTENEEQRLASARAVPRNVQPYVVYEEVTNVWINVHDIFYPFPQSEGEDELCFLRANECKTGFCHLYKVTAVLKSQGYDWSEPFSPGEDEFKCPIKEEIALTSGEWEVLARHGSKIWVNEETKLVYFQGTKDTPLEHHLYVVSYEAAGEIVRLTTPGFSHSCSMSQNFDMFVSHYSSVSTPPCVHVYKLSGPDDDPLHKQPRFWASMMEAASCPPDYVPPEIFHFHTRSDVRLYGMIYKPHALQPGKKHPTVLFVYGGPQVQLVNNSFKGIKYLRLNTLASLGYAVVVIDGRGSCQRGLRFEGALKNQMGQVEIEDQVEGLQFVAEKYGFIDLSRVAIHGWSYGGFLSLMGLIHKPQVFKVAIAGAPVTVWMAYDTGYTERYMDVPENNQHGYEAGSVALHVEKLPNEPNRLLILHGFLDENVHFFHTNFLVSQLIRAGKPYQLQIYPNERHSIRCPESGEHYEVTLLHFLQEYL
UniProt P30542, sequence (whole entry, looked up): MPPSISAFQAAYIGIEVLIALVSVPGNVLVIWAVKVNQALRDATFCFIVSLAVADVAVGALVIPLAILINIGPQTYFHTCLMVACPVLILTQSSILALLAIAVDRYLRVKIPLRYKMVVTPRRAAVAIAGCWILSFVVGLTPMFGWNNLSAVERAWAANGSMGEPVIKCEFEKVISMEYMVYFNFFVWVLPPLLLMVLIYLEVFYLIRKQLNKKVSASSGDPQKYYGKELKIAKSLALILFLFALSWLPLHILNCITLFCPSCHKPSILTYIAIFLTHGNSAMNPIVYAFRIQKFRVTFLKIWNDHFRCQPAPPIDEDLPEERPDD
UniProt P00940, sequence (whole entry, unmodified, looked up): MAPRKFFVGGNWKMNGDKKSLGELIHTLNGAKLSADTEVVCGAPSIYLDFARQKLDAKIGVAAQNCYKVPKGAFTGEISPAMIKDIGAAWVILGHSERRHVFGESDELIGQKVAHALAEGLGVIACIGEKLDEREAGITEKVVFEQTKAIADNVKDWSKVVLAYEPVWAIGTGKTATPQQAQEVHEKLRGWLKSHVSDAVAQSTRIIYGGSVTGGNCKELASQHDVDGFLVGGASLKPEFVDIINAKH
UniProt Q14654, sequence (whole entry, looked up): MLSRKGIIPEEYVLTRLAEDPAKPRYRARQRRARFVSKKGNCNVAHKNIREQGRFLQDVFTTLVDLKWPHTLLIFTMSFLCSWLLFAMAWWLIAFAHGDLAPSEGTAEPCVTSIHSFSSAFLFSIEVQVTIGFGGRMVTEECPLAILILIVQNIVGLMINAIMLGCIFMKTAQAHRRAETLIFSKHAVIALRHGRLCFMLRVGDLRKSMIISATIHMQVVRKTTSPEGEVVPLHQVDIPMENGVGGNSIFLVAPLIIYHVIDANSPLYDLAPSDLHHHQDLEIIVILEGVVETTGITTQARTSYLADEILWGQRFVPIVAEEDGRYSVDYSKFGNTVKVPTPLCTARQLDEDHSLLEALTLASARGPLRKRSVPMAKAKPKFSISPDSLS
UniProt Q15743, sequence (whole entry, looked up): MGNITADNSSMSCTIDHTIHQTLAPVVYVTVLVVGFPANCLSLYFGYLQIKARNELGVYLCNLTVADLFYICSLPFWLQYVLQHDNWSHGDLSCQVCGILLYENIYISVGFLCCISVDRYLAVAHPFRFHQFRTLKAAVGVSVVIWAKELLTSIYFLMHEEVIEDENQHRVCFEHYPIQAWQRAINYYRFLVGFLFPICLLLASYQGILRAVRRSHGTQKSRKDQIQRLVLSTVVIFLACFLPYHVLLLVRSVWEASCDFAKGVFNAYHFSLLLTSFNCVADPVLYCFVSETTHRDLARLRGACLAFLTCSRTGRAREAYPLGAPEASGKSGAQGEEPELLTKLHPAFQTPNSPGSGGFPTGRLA
UniProt Q9P286, sequence (whole entry, looked up): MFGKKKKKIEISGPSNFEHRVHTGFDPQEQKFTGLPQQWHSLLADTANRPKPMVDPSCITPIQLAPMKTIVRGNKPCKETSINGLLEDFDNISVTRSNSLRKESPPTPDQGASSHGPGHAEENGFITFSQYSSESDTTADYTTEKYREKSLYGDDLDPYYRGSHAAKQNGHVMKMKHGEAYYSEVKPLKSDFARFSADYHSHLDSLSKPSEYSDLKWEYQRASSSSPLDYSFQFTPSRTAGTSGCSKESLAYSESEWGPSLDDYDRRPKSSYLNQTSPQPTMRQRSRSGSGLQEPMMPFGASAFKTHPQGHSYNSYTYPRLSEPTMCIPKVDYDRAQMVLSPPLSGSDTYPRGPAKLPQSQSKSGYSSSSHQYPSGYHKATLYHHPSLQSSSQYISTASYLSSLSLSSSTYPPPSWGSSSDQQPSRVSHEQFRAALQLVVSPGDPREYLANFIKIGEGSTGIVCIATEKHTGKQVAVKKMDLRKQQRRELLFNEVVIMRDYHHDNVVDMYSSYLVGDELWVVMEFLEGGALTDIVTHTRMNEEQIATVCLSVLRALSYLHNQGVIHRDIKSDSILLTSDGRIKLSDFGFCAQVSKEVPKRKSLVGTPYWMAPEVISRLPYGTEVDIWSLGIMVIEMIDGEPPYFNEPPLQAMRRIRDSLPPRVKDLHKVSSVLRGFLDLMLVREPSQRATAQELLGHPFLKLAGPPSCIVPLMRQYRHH

`Nc1ncnc2c1ncn2[C@@H]1O[C@H](COP(=O)(O)OP(=O)(O)OP(=O)(O)O)[C@@H](O)[C@H]1O`: “open time constant” 0.9 ms (ATP-sensitive inward rectifier potassium channel 11 (Homo sapiens, UniProt Q14654); single-channel patch clamp; 100 µM, -25 mV).
With `C[C@H]1CN(c2n[nH]c3nc(N[C@H]4CC[C@H](NS(=O)(=O)CCC(F)(F)F)CC4)ncc23)CCO1` the relative abundance was 1.15 (Serine/threonine-protein kinase tousled-like 2 (TLK2, Homo sapiens, UniProt Q86UE8); inhibitor, Kinobeads competition profiling; 20 µM; relative to: vehicle).
`[2H]c1c([2H])c([C@]2([2H])CCCN2C(=O)C(C)(C)Oc2ccc3cn[nH]c3c2)c([2H])c([2H])c1C([2H])([2H])[2H]` has a remaining binding of 91% (Cyclin-dependent kinase 11A (CDK11A, Homo sapiens, UniProt Q9UQ88); KINOMEscan; 1 µM; relative to: DMSO control).
For `COc1ccc(Cl)c(Nc2nc3ccccc3nc2NS(=O)(=O)c2cccc(NC(=O)C(C)(C)N)c2)c1`, the maximum inhibition was 0% (human coronavirus OC43; virus-induced cell killing; MRC-5; maximum over 10 doses).
`CN1CCN(c2cc(-c3ccncc3)c(-c3ccc4ccccc4c3)nn2)CC1` has an inhibition of 20.1% (G-protein coupled receptor 68 (GPR68, Homo sapiens, UniProt Q15743); antagonist, FLIPR; 10 µM).
For `COc1ccc(N2C(=O)N(c3c(C)cccc3Cl)Cc3cnc(Nc4ccc(C5CCN(C)CC5)cc4OC)nc32)nc1`, the inhibition was 7% (Serine/threonine-protein kinase PAK 5 (PAK5, Homo sapiens, UniProt Q9P286); kinase activity; 0.5 µM).
For `Nc1nc(Cl)nc2c1ncn2[C@@H]1O[C@H](CO)[C@@H](O)[C@@H]1F`, the maximum inhibition was 18.1% (human coronavirus OC43; virus-induced cell killing; MRC-5; screen).
`O=C(Nc1cnccc1Cl)N1CCN(Cc2ccc3c(c2)OC(F)(F)O3)CC1` gave an inhibition of 21% (Adenosine receptor A1 (ADORA1, Homo sapiens, UniProt P30542); binding; 50 µM, together with: [3H]DPCPX).
`O=C(c1ccc(Cl)cc1)N1CCN2C(=O)N(OC(=O)N3CCOc4ccccc43)C(=O)C2C1` (stereo not shown) gave a median ratio of 1.14 (Dipeptidyl peptidase 9 (DPP9, Homo sapiens, UniProt Q86TI2); enzyme activity, inhibitor, MS-based ABPP; SW-620 in situ; 10 µM, 2 h, 37 °C; relative to: compound over DMSO, lower = stronger inhibition).
`O=C(O)COP(=O)(O)O` has a Ki ratio of 24 (Triosephosphate isomerase (TPI1, Gallus gallus, UniProt P00940, G210A/S211G/Y208T); enzyme activity, competitive inhibitor, GPDH/NADH-coupled; pH 8.3, 25 °C, ionic strength 0.1 NaCl, together with: glyceraldehyde 3-phosphate substrate; relative to: mutant over wild type).

Excerpt of the above:
For `COc1ccc(N2C(=O)N(c3c(C)cccc3Cl)Cc3cnc(Nc4ccc(C5CCN(C)CC5)cc4OC)nc32)nc1`, the inhibition was 7% (Serine/threonine-protein kinase PAK 5 (PAK5, Homo sapiens, UniProt Q9P286); kinase activity; 0.5 µM).
